Results of several laboratories.
Parts stem from different laboratories: compare values within a part only. Substitutions count along the parent as printed.
Sequence of UniProt Q9Y2X8 (whole entry, looked up): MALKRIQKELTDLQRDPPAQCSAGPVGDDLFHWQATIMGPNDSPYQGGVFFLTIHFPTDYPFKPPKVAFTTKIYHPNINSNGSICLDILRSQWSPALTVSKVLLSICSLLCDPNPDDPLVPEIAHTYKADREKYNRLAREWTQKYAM

Sample 1
Target: CCNE2, cyclin fold, Cln2 fusion (human)
Technique: yeast growth competition, sequencing
Matrix: yeast
Notes: strong parent motif
Relative to: not given
Reading: higher = stronger binding
Starting sequence: viral docking peptide; YKVKRRLVFGADD; partner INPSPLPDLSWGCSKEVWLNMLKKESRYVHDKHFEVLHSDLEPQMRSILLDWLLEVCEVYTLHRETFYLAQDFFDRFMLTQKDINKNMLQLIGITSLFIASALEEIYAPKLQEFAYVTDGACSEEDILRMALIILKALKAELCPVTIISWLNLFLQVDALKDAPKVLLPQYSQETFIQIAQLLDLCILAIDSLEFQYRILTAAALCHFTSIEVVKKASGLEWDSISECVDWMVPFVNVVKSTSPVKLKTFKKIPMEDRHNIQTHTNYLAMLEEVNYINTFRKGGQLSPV
| Substitution | normalised enrichment score |
| --- | --- |
| F9E | 0.299 |
| L7K | 0.712 |
| L7R | 0.844 |
| R6V | 4.33 |
| V3D | 0.392 |
| G10R | 4.47 |
| A11V | 5.55 |
| V8P | 0.9 |
| R6F | 0.942 |
| V3H | 2.42 |
| D12K | 4.81 |
| V3K | 0.459 |
| R5S | 0.543 |
| R5Y | 0.453 |
| K4V | 4.16 |
| R6C | 2.03 |

Sample 2
Target: HLA class I histocompatibility antigen, A alpha chain, allele A*25:01 (Homo sapiens, UniProt P04439)
Effect on: peptide-MHC binding
Molecule type: peptide
Tested at: concentration not given
| Sequence | binding |
| --- | --- |
| MGMEQTMSV | inactive |
| FAAPHRGVA | inactive |
| KVGFIMLFH | inactive |

Sample 3
Target: RNA binding protein fox-1 homolog 2, RRM domain, GST-SBP tag (RBFOX2, Homo sapiens, UniProt O43251-10, residues 100-194)
Technique: RNA Bind-n-Seq
Molecule type: RNA
Matrix: in vitro
Tested at: 365 nM
Notes: natural RNA segment, single round, ends assumed
Relative to: no-protein control
Reading: higher = stronger binding
Constant ends, left off below: GGGAGUUCUACAGUCCGACGAUC … UGGAAUUCUCGGGUGCCAA
Residues (chain): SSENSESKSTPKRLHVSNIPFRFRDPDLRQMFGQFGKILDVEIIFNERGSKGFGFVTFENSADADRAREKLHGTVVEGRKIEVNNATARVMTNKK
| Oligonucleotide | RBNS enrichment (R) |
| --- | --- |
| CCUUUCUUCAGACUCCGUCCAAGGAGAUGCUCUCCCCGGUCUUCUGCUGCAGAUAGGAUCCUUCCCUUGUCUCCAUUCCUCUCCUCCCAAAGGGAGAGGGGCAAAUGGUU | 0.22 |
| UGUCCGCCCCUUGCCUGGAGACAGUUCUUCCCAUUUUAAACAAACAAACAAAAUUUAAGGCGUUUAUCCACAAGUUCUUGACUCGGGUACAGUGCGUUCCUGAGACACCC | 0.397 |
| CACUGCCUUAAAAUGAUACUUAUUUCCUUAAAAAAGAAAAUAAAAUAAGAGAUAUCAGUCAGAAUUGCAGAUUUUUAACAGUGGUCAUUAUUAAAGCUGUGUUAUUUUCC | 0.492 |
| GGUAGGCCUAGCAGGUAGAGCUCAGGCCAGGGGUCUUUCCUCUGAGUCGGGAACAUGUCCAUUCUACCUCAGGGUUGGGUGGUGCGAGGCCAAGCCAGGCCUGGCUGUGU | 0.255 |
| GUCUUAAGAAGCUUUUUCCCCAUAGUGCCUAUAGUUUCCAAAGAAACUCAACUUCCUAACUGUGUUAACUUAAUUUUAUUAGAACACUACAGUUGAGUGAGAACGUGCAG | 0.399 |
| AGCAUCUGCACUGGAAAUGCAGCAGGAGGGCCCAGUGAGGGAGGCCUGGAAAGUCCACUUGGACUUGACAAUGAGGAGCUCUCUGCUGUCACCUGCUGUGAUUCCUAGAG | 0.401 |
| CUUUCUGUAUAUGGAUGGCACAGAGGAAUCAAGGACAACUUAGCUCUCUGCAUACUUGGAACAACCAACUAUUUGUACAUUGAACGGAUGCUCUGAAACCCAAGGGACUG | 8.21 |
| UCUGAGUGAAGGGCGUACACUGGCACCUGGUGUUGCCUAGAUCCCCCAUCUCCUCCUUCCAGCCAGGUCUGGAAGUUUCAACAGCCCAAGCUUAACUUCAUGUAAAGUCU | 0.249 |

Sample 4
Target: TAR DNA-binding protein 43, full length, His tag (TARDBP, Homo sapiens, UniProt Q13148, residues 1-414)
Technique: RNA Bind-n-Seq
Molecule type: RNA
Matrix: in vitro
Tested at: 20 nM
Notes: 6-mer, flanks averaged, single round
With: 150 mM KCl
Relative to: input library
Reading: higher = stronger binding
| Oligonucleotide | 6-mer enrichment (R) |
| --- | --- |
| ACAAAC | 0.624 |
| CUCAUU | 0.567 |
| CCGCGA | 0.795 |
| UGUAGA | 0.954 |
| UCCGCG | 0.873 |
| AGAAGC | 0.826 |
| GUGUUG | 1.4 |
| UAAGUG | 0.964 |

Further values, each from its own experiment
B1: RNF135 RING domain (UniProt Q8IUD6); chain PVWLAEDDLGCIICQGLLDWPATLPCGHSFCRHCLEALWGARDARRWACPTCRQGAAQQPHLR
| Sequence | target | assay | test system | setting | how to read | measurement | result |
| --- | --- | --- | --- | --- | --- | --- | --- |
| B1 (RNF135 RING domain) | UBE2D4 UBC core domain (UniProt Q9Y2X8) | yeast two-hybrid | yeast | mostly zero background | relative to: not given, higher = stronger interaction | lacZ reporter activity | 0 |

Excerpt of the above (sample 4):
| Oligonucleotide | 6-mer enrichment (R) |
| --- | --- |
| CUCAUU | 0.567 |
| UCCGCG | 0.873 |
| CCGCGA | 0.795 |
| GUGUUG | 1.4 |
